Results gathered from unrelated publications.
Compare with care: the assays were run in different laboratories. Values joined by “and” are separate records of one study, mostly repeats; a detail may differ. ± gives the spread as reported.
Chain of UniProt P08684 (whole entry, looked up): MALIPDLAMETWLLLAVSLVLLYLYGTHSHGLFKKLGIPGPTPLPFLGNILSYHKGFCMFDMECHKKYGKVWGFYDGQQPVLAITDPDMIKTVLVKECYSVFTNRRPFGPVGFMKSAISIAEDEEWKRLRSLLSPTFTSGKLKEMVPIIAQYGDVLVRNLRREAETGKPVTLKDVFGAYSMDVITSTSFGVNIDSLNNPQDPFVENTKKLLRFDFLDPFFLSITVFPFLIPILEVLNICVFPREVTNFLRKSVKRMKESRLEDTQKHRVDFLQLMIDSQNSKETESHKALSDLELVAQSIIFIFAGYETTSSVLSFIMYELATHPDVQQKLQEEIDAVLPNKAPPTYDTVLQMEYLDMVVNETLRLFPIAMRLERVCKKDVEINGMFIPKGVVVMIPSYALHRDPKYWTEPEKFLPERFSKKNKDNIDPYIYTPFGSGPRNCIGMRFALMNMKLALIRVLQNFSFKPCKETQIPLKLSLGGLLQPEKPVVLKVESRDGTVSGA
Chain of UniProt O43684 (whole entry, looked up): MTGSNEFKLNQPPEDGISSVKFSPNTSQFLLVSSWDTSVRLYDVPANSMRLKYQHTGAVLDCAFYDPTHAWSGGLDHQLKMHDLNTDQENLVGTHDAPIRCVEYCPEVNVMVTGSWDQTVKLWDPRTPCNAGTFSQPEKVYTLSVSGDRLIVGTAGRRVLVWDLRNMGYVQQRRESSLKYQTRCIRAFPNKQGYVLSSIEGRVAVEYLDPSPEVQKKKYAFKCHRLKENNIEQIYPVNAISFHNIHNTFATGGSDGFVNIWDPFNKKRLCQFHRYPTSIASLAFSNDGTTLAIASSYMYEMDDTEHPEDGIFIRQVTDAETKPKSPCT
Chain of UniProt P05181 (whole entry, looked up): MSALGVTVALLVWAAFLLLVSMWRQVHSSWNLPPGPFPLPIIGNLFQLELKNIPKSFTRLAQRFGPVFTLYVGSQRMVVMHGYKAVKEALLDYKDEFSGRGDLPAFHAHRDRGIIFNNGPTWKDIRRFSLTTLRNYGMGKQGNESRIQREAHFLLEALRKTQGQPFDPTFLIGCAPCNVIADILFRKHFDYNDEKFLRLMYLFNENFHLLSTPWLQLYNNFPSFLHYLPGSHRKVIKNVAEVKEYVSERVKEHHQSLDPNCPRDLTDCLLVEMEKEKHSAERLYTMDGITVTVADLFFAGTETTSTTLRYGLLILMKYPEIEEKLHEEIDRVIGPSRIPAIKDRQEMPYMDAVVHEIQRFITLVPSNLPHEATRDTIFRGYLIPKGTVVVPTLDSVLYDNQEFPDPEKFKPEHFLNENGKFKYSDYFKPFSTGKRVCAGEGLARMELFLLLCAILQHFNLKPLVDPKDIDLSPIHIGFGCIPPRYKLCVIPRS
Chain of UniProt P22309 (whole entry, looked up): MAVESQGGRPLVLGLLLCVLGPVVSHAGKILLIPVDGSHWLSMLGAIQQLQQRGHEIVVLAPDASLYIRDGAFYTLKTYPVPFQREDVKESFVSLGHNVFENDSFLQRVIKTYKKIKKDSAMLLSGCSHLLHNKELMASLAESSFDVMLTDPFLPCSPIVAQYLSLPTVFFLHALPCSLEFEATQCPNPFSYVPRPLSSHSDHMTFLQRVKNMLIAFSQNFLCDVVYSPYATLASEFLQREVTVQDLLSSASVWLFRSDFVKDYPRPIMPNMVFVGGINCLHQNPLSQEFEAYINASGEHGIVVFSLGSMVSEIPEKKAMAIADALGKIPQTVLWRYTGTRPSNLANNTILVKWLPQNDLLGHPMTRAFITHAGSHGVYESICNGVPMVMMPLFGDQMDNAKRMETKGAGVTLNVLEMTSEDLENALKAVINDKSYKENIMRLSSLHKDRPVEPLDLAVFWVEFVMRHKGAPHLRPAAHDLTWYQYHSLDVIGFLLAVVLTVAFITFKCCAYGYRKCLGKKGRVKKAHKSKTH

Structure (SMILES) | tested on | assay | test system | conditions | how to read | quantity | result
OC(CCN1CC=C(c2ccc(F)cc2)CC1)c1ccc(F)c2ccccc12 (centres unmarked) | Salmonella typhimurium | SOS response, SOS/umu test | TA1535/pSK1002, TGA medium | 0.000488 mg/mL, 4 h, together with: 10% rat liver S9 | baseline: untreated | induction factor | 0.7
CN[C@@]1(c2ccccc2Cl)CCCCC1=O | UGT1A1 (Homo sapiens, UniProt P22309) | enzyme activity | – | 30 µM | – | inhibition | -3%
Cc1ncc2n1-c1ccc(Cl)cc1C(c1ccccc1F)=NC2 | Cytochrome P450 3A4 (CYP3A4, Homo sapiens, UniProt P08684) | – | human, plasma | oral, 2 mg, day 1, alone, arithmetic mean | – | half-life | 3.25 h
CC(C)=CC1C(C(=O)OC(C#N)c2cccc(Oc3ccccc3)c2)C1(C)C (centres unmarked) | human CYP3A5 | IVIVE from expressed enzymes | human, liver, in vivo scaled | age-specific | – | enzyme contribution to CLint | 0.24%
CN/C(=N\[N+](=O)[O-])NCc1cnc(Cl)s1 | – | – | soil | 56 days, nominal 0.12 | – | concentration | 0.05 mg/kg dry soil
[Cl-].[Cl-].[Pt+2].[Ru+2].c1ccc(-c2nccnc2-c2ccccn2)nc1.c1cnc2c(c1)ccc1cccnc12.c1cnc2c(c1)ccc1cccnc12 | Danio rerio | – | embryos | 75 µM, 48 h | – | hatching rate | 0%
O=C1c2ccccc2C(=O)c2ccccc21 | HepaRG co-cultured with HK-2 | MTT | – | 266.67 µM, 24 h | baseline: untreated control | cell viability | 39.4 ± 4.3%
CC1(C)[C@H](C(=O)OCc2cccc(Oc3ccccc3)c2)[C@@H]1C=C(Cl)Cl | human cytosolic CES2 | IVIVE from expressed enzymes | human, liver, in vivo scaled | 0.1 µM, age-specific | – | enzyme contribution to CLint | 5.5%
COc1ccc(-n2nc(C(C)=O)s/c2=N\N=C(/C)c2ccc(NC(C)=O)cc2)cc1 | WI-38 | – | – | 1.25 µM, 24 (unit not given) | – | viability | 3.23%
[Cl-].[Cl-].[Pt+2].[Ru+2].c1ccc(-c2nc3cc4ccccc4cc3nc2-c2ccccn2)nc1.c1cnc2c(c1)ccc1cccnc12.c1cnc2c(c1)ccc1cccnc12 | Danio rerio | – | embryos | 15 µM, 72 h | – | survival rate | 93.3 ± 2.7%
O=c1ccc2ccccc2o1 | NHEK | oxygen consumption rate, Seahorse | – | 6 h | – | point of departure | 406 µM
COc1ccc2c(c1OC)C(=O)c1c(cc(C)c(O)c1OC)C2=O | HK-2 co-cultured with HepaRG | MTT | – | 33.33 µM, 24 h | baseline: untreated control | cell viability | 100 ± 10.3%
O=C1c2c(O)c(=O)ccn2N([C@@H]2c3ccccc3SCc3c2ccc(F)c3F)[C@@H]2COCCN12 | – | – | BALB/c mice, plasma | oral, 15 mg/kg baloxavir marboxil, 4 h | – | plasma concentration | 70.4 ng/mL
CC(=O)OC[C@H]1O[C@@H](Oc2cc(O)cc3cc4oc(C)cc(=O)c4c(O)c23)[C@H](O)[C@@H](O)[C@@H]1O | HepaRG co-cultured with HK-2 | MTT | – | 66.67 µM, 24 h | baseline: untreated control | cell viability | 131 ± 9.98%
COc1cccc(-c2n[nH]c(SCc3ccccn3)n2)c1OC | Escherichia coli | Ames test, preincubation | WP2 uvrA | 1.0 mg/plate, without S9 | – | revertant colonies per plate | 13
COc1cc2ncnc(Nc3cccc(Cl)c3)c2cc1OC | HaCaT | – | – | 0.412 µM, 60 h | – | viability | 84.9% and 96% and 100%
CC(=O)N1CCC(C(=O)N2CCN3C(=O)c4cc(-c5ccccc5)ccc4NC(=O)C3C2)CC1 (centres unmarked) | Escherichia coli | – | WP2 uvrA | 5000 µg/plate, together with: rat liver S9 | – | revertants per plate | 34.5
C[C@H]1CN(c2n[nH]c3nc(N[C@H]4CC[C@H](NS(=O)(=O)CCC(F)(F)F)CC4)ncc23)CCO1 | Mitotic checkpoint protein BUB3 (Homo sapiens, UniProt O43684) | biochemical | – | – | – | IC50 | ≥ 20 µM
Cc1cc2c(c(O)c1O)C(=O)c1c(O)cc(O)cc1C2=O | HepaRG co-cultured with HK-2 | MTT | – | 133.33 µM, 24 h | baseline: untreated control | cell viability | 54.1 ± 6.07%
O=[N+]([O-])c1ccc(N2CCN(CCC(O)c3ccc(F)cc3)CC2)c(C(F)(F)F)c1 (centres unmarked) | Salmonella typhimurium | SOS response, SOS/umu test | TA1535/pSK1002, TGA medium | 0.000488 mg/mL, 4 h, together with: 10% rat liver S9 | baseline: untreated | induction factor | 0.8
CCC1(c2ccccc2)C(=O)NC(=O)NC1=O | pooled human hepatocyte co-culture | mRNA induction, refers to: CYP2B6 mRNA | – | 48 h | baseline: vehicle | Emax | 24.5 fold
Cc1cc(C(=O)NC(C)(C)COc2cccc3c2C(N)=NS(=O)(=O)N3)cc(C)n1 | Salmonella typhimurium | Ames test, initial | TA1537 | 1.50 µg/plate, together with: rat liver S9 | baseline: solvent control | revertant ratio | 0.8
CC(C)CC(=O)OC[C@H]1O[C@@](C#N)(c2ccc3c(N)ncnn23)[C@H](O)[C@@H]1O | Cytochrome P450 2E1 (CYP2E1, Homo sapiens, UniProt P05181) | metabolic stability | recombinant enzyme | 1 µM, 30 min | – | remaining compound | 97.1 ± 3.99%

For quick reference, copied from above:
Structure (SMILES) | tested on | assay | test system | conditions | how to read | quantity | result
Cc1cc2c(c(O)c1O)C(=O)c1c(O)cc(O)cc1C2=O | HepaRG co-cultured with HK-2 | MTT | – | 133.33 µM, 24 h | baseline: untreated control | cell viability | 54.1 ± 6.07%
O=[N+]([O-])c1ccc(N2CCN(CCC(O)c3ccc(F)cc3)CC2)c(C(F)(F)F)c1 (centres unmarked) | Salmonella typhimurium | SOS response, SOS/umu test | TA1535/pSK1002, TGA medium | 0.000488 mg/mL, 4 h, together with: 10% rat liver S9 | baseline: untreated | induction factor | 0.8
